Published values collected from several papers.
“And” joins repeats or separate records; there may be more than shown. ± marks the error that the study gave.
NR1I2: Nuclear receptor subfamily 1 group I member 2 (NR1I2, Homo sapiens, UniProt O75469)
UniProt O75469, sequence (whole entry, looked up): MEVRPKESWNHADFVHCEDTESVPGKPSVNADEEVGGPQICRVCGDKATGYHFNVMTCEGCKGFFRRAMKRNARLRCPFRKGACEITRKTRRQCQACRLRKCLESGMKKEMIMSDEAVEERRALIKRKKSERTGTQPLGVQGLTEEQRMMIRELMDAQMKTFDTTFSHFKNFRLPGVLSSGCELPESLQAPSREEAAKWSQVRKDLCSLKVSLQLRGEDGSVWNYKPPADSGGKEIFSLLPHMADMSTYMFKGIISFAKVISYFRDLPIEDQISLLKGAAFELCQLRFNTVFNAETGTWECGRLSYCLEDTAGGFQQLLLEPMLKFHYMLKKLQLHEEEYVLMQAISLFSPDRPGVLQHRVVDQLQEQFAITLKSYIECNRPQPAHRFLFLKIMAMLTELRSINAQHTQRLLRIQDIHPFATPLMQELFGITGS
CYP2C8: Cytochrome P450 2C8 (CYP2C8, Homo sapiens, UniProt P10632)
UniProt P10632, sequence (whole entry, looked up): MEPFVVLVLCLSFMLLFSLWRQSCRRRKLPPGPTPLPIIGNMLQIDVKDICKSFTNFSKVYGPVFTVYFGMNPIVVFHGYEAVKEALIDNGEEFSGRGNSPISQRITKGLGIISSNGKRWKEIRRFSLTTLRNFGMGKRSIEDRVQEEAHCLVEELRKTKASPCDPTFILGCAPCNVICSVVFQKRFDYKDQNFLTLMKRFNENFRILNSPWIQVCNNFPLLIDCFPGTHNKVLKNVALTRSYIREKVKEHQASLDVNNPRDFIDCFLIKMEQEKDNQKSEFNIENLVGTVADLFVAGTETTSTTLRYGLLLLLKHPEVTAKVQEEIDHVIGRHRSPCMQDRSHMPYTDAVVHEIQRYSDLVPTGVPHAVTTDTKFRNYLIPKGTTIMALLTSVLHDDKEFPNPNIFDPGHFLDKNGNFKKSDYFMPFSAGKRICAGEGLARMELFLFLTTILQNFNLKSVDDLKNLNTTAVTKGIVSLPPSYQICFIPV
CTSS: Cathepsin S (CTSS, Homo sapiens, UniProt P25774)
UniProt P11510, sequence (whole entry, looked up): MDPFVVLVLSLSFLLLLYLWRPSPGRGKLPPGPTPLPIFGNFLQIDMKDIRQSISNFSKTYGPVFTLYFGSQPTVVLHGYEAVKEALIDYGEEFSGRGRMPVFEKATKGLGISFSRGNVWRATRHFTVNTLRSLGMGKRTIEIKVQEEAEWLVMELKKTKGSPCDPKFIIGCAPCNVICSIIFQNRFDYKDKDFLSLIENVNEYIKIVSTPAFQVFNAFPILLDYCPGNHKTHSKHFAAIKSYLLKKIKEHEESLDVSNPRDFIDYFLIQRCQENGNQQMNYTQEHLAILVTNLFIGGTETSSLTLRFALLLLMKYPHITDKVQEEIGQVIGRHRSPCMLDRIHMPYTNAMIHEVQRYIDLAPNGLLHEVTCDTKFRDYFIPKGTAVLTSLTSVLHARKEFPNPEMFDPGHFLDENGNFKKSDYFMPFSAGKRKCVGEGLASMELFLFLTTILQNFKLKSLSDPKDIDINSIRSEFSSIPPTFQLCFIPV
UniProt P08684, sequence (whole entry, looked up): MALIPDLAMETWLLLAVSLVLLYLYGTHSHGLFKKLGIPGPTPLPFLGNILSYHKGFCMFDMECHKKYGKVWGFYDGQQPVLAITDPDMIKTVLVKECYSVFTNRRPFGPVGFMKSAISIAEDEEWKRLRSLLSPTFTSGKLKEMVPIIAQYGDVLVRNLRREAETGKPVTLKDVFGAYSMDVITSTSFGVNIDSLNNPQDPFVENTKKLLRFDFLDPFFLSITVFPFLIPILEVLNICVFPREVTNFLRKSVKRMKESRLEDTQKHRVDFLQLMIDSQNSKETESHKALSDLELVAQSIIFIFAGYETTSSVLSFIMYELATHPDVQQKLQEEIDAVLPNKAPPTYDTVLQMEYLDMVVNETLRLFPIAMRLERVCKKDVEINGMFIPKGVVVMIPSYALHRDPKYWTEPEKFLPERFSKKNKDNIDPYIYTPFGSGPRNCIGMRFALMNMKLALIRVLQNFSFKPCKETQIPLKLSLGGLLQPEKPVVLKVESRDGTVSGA
UniProt P27487, sequence (whole entry, looked up): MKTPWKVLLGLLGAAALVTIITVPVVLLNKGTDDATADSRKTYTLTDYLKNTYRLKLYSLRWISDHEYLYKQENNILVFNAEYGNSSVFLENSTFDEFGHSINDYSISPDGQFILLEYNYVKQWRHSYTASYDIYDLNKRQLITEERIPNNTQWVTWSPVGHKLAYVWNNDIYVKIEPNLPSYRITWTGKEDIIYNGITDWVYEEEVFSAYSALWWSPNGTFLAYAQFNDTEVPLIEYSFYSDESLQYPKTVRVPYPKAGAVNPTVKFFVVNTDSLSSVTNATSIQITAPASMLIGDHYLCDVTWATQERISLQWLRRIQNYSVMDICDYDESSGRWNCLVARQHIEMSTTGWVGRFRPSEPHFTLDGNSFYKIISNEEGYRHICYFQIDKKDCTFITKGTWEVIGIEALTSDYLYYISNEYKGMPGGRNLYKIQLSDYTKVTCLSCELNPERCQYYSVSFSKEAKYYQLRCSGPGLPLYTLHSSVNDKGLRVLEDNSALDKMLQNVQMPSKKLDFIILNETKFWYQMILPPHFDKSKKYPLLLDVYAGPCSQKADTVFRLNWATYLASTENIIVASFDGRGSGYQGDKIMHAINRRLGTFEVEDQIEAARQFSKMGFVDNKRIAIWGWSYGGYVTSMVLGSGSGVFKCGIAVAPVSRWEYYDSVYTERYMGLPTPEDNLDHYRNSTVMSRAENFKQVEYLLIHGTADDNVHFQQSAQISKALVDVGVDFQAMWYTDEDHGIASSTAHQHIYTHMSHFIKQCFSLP
UniProt Q08499, sequence (whole entry, looked up): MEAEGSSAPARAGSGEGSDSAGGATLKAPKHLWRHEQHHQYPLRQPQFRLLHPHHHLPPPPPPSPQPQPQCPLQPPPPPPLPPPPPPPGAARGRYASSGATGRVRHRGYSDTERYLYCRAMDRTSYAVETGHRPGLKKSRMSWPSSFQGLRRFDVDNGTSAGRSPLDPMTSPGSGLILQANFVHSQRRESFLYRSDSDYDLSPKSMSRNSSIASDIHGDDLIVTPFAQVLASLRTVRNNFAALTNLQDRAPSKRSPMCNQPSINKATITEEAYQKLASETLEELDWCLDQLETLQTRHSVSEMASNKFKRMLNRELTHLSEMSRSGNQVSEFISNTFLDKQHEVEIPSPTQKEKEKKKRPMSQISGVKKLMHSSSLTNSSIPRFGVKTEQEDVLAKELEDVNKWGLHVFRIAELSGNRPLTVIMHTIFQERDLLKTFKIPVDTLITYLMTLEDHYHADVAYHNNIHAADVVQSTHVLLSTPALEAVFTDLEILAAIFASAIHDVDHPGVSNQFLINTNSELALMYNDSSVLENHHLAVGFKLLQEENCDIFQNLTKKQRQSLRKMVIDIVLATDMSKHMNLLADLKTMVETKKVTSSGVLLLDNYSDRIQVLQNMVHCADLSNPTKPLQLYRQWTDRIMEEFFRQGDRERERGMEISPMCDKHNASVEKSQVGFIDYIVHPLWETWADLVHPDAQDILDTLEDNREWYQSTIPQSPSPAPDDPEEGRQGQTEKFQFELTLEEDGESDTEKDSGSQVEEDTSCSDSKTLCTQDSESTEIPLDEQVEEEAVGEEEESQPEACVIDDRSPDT
UniProt O55242, sequence (whole entry, looked up): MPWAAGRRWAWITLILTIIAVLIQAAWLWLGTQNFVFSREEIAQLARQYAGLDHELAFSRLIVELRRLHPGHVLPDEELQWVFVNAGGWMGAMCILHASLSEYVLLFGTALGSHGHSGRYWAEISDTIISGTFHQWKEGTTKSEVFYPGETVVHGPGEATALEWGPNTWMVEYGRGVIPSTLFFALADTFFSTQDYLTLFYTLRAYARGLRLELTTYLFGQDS

| Compound | target | test | test system | setting | how to read | quantity | result |
| --- | --- | --- | --- | --- | --- | --- | --- |
| [11CH3]N1CCN(CCCOc2ccc(=O)n(-c3ccc(Cl)c(Cl)c3)n2)CC1 | Sigmar1 (Mus musculus, UniProt O55242) | radiotracer | mouse BALB/c male, whole brain | intravenous | – | Tmax | ~5 min |
| [11CH3]Oc1ccc(Cc2cn[nH]c2)nc1-c1cccc([N+](=O)[O-])c1 | PDE4D (Homo sapiens, UniProt Q08499) | PET | – | concentration not given, 30 to 120 min, baseline scan | – | brain radioactivity | ~2 SUV |
| CCC(=O)N(C)c1ccc(Cl)c(Cl)c1 | NR1I2 | reporter gene, agonist | – | 3.2 µM | relative to: vehicle | fold activation | 1.18 fold |
| CCC1CC2C(C)=CC3C(=O)CCCC3C=CC(C)=CC2C(=O)O1 (centres unmarked) | CYP2C8 | – | human liver microsomes | 10 µM, 10 min, pH 7.4, with: amodiaquine 1 µM | relative to: untreated | remaining activity | 121% |
| COc1cc(-c2nc3ccccc3s2)cc(CN2Cc3cccc(n3)CNCc3cccc(n3)C2)c1O | copper(2+) ion | Cu2+ binding, from titration constants | aqueous solution | 50 µM, pH 7.4, Cu:ligand 1:1, equal totals | – | pCu | 13.5 |
| O=c1c(/C=N/NC(=S)N/N=C/c2cc(Cl)ccc2O)coc2ccccc12 | Fe2+ complex | potentiometric titration | – | 25 °C | – | log stability constant | 18.2 |
| CC(=O)N[C@H](C(=O)N[C@H](C(=O)N[C@@H](CCCNC(=N)N)C(=O)N1Cc2ccccc2C[C@H]1C(=O)N[C@@H](Cc1ccccc1)C(N)=O)C1CCCCC1)C(C)C | CTSS | substrate | isolated enzyme in acetate buffer | 1 mg/mL, pH 5.5, 0.30 U enzyme per µmol compound | – | half-life | > 240 min |
| COc1ccc2c(c1)C=C(C(=O)N1C[C@@H](C)O[C@@H](C)C1)Cn1c-2c(C2CCCCC2)c2ccc(C(=O)NS(=O)(=O)N(C)C)cc21 | NR1I2 | PXR activation | – | – | – | IC50 | > 10 µM |
| COc1cc(-c2nc3ccccc3s2)cc(CN2CCN(C)CCN(C)CC2)c1O | copper(2+) ion | Cu2+ binding, from titration constants | aqueous solution | 50 µM, pH 6.6, Cu:ligand 1:1, equal totals | – | pCu | 12.8 |
| CSCC[C@H](NC(=O)[C@@H]1CCCN1C(=O)[C@@H](COC(C)(C)C)NC(=O)[C@@H](COC(C)(C)C)NC(=O)CNC(=O)CN1CCN(CC(=O)OC(C)(C)C)CCN(CC(=O)OC(C)(C)C)CCN(CC(=O)OC(C)(C)C)CC1)C(=O)NCC(=O)N[C@@H](CC(C)C)C(=O)N1CCC[C@H]1C(=O)O | CTSS | cleavage, substrate | – | 72 h, pH 6.0, room temperature, un-metalated | – | fraction metabolized | 80% |
| COc1cc(-c2nc3ccccc3s2)cc(CN2Cc3cccc(n3)CN(CC(=O)O)Cc3cccc(n3)C2)c1O | copper(2+) ion | Cu2+ binding, from titration constants | aqueous solution | 50 µM, pH 6.6, Cu:ligand 1:1, equal totals | – | pCu | 12 |
| CNC(=S)N/N=C/c1ccccn1 | Fe2+ complex | potentiometric titration | – | 25 °C | – | log stability constant | 17.1 |
| NS(=O)(=O)Nc1ncnc(OCCOc2ncc(Br)cn2)c1-c1ccc(Br)cc1 | Cytochrome P450 2C12, female-specific (Cyp2c12, Rattus norvegicus, UniProt P11510) | substrate, refers to: compound formation | rat, male | pH 7.4, mRNA abundance scaled | – | contribution to total CLint | < 0.1% and < 1% |
| NC(=S)N/N=C/c1cc(Cl)ccc1O | Fe2+ complex | potentiometric titration | – | 25 °C | – | log stability constant | 17 |
| COc1ccc2cc(NC(=O)c3cc(-c4ccncc4)nc4ccccc34)ccc2c1 | Cytochrome P450 3A4 (CYP3A4, Homo sapiens, UniProt P08684) | substrate, LC-MS, refers to: hydroxylated metabolite M1 | baculosomes | – | – | Km | 0.6 ± 0.1 µM |
| COc1cc(-c2nc3ccccc3s2)cc(CN2Cc3cccc(n3)CN(C)Cc3cccc(n3)C2)c1O | copper(2+) ion | Cu2+ binding, from titration constants | aqueous solution | 50 µM, pH 7.4, Cu:ligand 1:1, equal totals | – | pCu | 12.3 |
| CCCCCCCCCCCCCCCC(=O)OCC(CSC[C@H](N)C(=O)N[C@@H](CO)C(=O)N[C@@H](CCCCN)C(=O)N[C@@H](CCCCN)C(=O)N[C@@H](CCCCN)C(=O)N[C@@H](CCCCN)C(=O)NCCCCCC(=O)N[C@@H](CCCCN)C(=O)N[C@@H](CC(C)C)C(=O)N[C@H](C(=O)N[C@@H](Cc1ccccc1)C(=O)N[C@@H](Cc1ccccc1)C(=O)N[C@@H](Cc1ccc2ccccc2c1)C(=O)O)C(C)C)OC(=O)CCCCCCCCCCCCCCC (some centres unmarked) | Amyloid-beta precursor protein, fibrillar amyloid-beta (APP, Homo sapiens, UniProt P05067) | dynamic light scattering | – | 20 µM, compound alone, whole sample | – | hydrodynamic diameter | ~66 nm |
| O=c1c(/C=N/NC(=S)N/N=C/c2ccccn2)coc2ccccc12 | Fe2+ complex | potentiometric titration | – | 25 °C | – | log stability constant | 17.9 |
| C=CC(=O)Nc1cc(Nc2nccc(-c3cn(C)c4ccccc34)n2)c(OCC(F)(F)F)nc1N(C)CCN(C)C | CYP2C8 | enzyme activity, inhibitor | human, liver microsomes | 10 µM | – | activity vs control | 95.3% |
| [64Cu+2].c1cnc(CNCc2ccc(CN3CCCN4CCNCCCN(CC4)CC3)cc2)nc1 | CXCR4 | – | NOD/SCID mouse, U87 and U87-stb-CXCR4 xenografts, pancreas | iv, 30 min, ex vivo | – | tissue uptake | 1.61 ± 0.08 %ID/g |
| CC(=O)Nc1ncc(CN2CC[C@H](Oc3cccc(F)n3)C[C@@H]2C)s1 | MRP1 (ABCC1) | substrate | – | – | – | efflux ratio | 0.85 |
| CC[C@H](C)[C@H](NC(=O)[C@H](Cc1ccccc1)NC(=O)[C@H](CCC(=O)O)NC(=O)[C@H](CCCCN)NC(=O)[C@H](C)NC(=O)[C@H](C)NC(=O)[C@H](CCC(N)=O)NC(=O)CNC(=O)[C@H](CCC(=O)O)NC(=O)[C@H](CC(C)C)NC(=O)[C@H](Cc1ccc(O)cc1)NC(=O)[C@H](CO)NC(=O)[C@H](CO)NC(=O)[C@@H](NC(=O)[C@H](CC(=O)O)NC(=O)[C@H](CO)NC(=O)[C@@H](NC(=O)[C@H](Cc1ccccc1)NC(=O)[C@@H](NC(=O)CNC(=O)[C@H](CCC(=O)O)NC(=O)[C@H](C)NC(=O)[C@@H](N)Cc1c[nH]cn1)[C@@H](C)O)[C@@H](C)O)C(C)C)C(=O)N[C@@H](C)C(=O)N[C@@H](Cc1c[nH]c2ccccc12)C(=O)N[C@@H](CC(C)C)C(=O)N[C@H](C(=O)N[C@@H](CCCNC(=N)N)C(=O)NCC(=O)N[C@@H](CCCNC(=N)N)C(=O)NCC(=O)O)C(C)C | DPP4 (Homo sapiens, UniProt P27487) | proteolytic stability, substrate, HPLC-UV | – | up to 24 h, pH 7.4, 37 °C, with: recombinant enzyme 16 nmol/l | – | half-life | 18 ± 6 min |
| [64Cu+2].c1ccc(CNCc2ccc(CN3CCCN4CCNCCCN(CC4)CC3)cc2)nc1 | CXCR4 | – | NOD/SCID mouse, U87 and U87-stb-CXCR4 xenografts, liver | iv, 30 min, ex vivo | – | tissue uptake | 79.5 ± 20.9 %ID/g |

Some of these lines once more:
| Compound | target | test | test system | setting | how to read | quantity | result |
| --- | --- | --- | --- | --- | --- | --- | --- |
| [64Cu+2].c1ccc(CNCc2ccc(CN3CCCN4CCNCCCN(CC4)CC3)cc2)nc1 | CXCR4 | – | NOD/SCID mouse, U87 and U87-stb-CXCR4 xenografts, liver | iv, 30 min, ex vivo | – | tissue uptake | 79.5 ± 20.9 %ID/g |
| [11CH3]Oc1ccc(Cc2cn[nH]c2)nc1-c1cccc([N+](=O)[O-])c1 | PDE4D (Homo sapiens, UniProt Q08499) | PET | – | concentration not given, 30 to 120 min, baseline scan | – | brain radioactivity | ~2 SUV |
